Published values gathered from unrelated publications.
Compare with care: the assays were run in different laboratories. Several values in a cell are separate wells, animals, samples, runs or records. Numbers after ± are the reported error. Values after ≈ are worked out from the molar mass of the structure shown.

| Compound | target or system | assay | system | conditions | scale | measurement | result |
| --- | --- | --- | --- | --- | --- | --- | --- |
| C=C1C(=O)OC2C1CCC(C)(O)C13C=CC(C)(C21)C1(C3)C(=O)OC2C3C(C)C(=O)CC3C(=C)CC(OC(C)=O)C21 (centres unmarked) | AML12 | Western blot, item: ACLY, ACC, FASN, SCD1 |  | concentration not given, added: palmitate/oleate |  | protein level | decreased |
| CN(C)Cc1nc(Nc2ccc(-c3cnc4cc(F)ccn34)c3c2C(=O)NC3)ccc1C1CCOC1 (centres unmarked) | human CD8 T cells | cytokine induction, item: GM-CSF |  | added: anti-CD3/CD28 |  | EC50 | 17 nM |
| COC1=C2CC(C)CC(OC)C(O)C(C)C=C(C)C(OC(N)=O)C(OC)C=CC=C(C)C(=O)NC(=CC1=O)C2=O (centres unmarked) | Rh30 | ChIP-seq, item: H3K36me3 peak |  | concentration not given, CENPU TTS chr4:185611800-185620399 | relative to: untreated control | log fold change | -0.529 |
| CCCCCCC(=O)[O][Pt]([NH2])([NH2])([Cl])([Cl])[O]C(=O)CCC(C)C1CCC2C3CCC4CC(O)CCC4(C)C3CCC12C (centres unmarked) | PC-3 | JC-1 flow cytometry |  | 2 µM, 48 h |  | cells with depolarised mitochondria | 63.9% |
| CC[C@H](C)[C@@H]1NC(=O)[C@H](CCSC)NC(=O)[C@H](Cc2c[nH]c3ccccc23)NC(=O)[C@H](CC(N)=O)NC(=O)[C@@H](NC(=O)CCOCCOCCOCCNC(=O)CN2CCN(CC(=O)O)CCN(CC(=O)O)CC2)CSSC[C@@H](C(=O)O)NC(=O)[C@H](CCC(=O)O)NC(=O)[C@H](CCCCN)NC(=O)[C@H](CC(N)=O)NC1=O [gallium-68 labelled] | activated human PBMCs |  |  | 60 min |  | cell uptake | 3.34 ± 0.38% |
| CCCCCC(=O)[O][Pt]([Cl])([Cl])[O]C(=O)CCCCC.N.N | A549/DDP cisplatin-resistant |  |  | added: survivin siRNA transfection | relative to: non-transfected over transfected | IC50 fold reduction | 1.9 fold |
| N#Cc1cccc(/C=C/C(=O)c2ccc(O)cc2)c1 | U-87 MG | item: FBXO32 |  | concentration not given | relative to: untreated | fold change | 40.8 |
| O=C(N1CCCC1)n1cc(-c2ccc(-c3ccccc3)cc2)nn1 | mouse T cells | N-terminal labelling proteomics, item: Ccdc97 N-terminal peptide |  | 0.001 µM, 6 h | relative to: DMSO | SILAC ratio per peptide | 1.02 and 1.26 and 1.33 |
| COc1cc(N2CCN(C(=O)C3CCCN3)CC2)ccc1Nc1ncc(Cl)c(Nc2ccccc2P(C)(C)=O)n1 (centres unmarked) | NCI-H3122 | CCK-8 |  | 250 nM, 48 h |  | viability | 21% |
| Cc1ccc(-n2cc(CSc3nc4ccccc4n3Cc3cn(-c4ccc(C)cc4)nn3)nn2)cc1 | MDA-MB-231 | MTT |  | 250 ppm |  | cytotoxicity | 92.6% |
| COC(=O)c1cc(NC2=NC(=O)C(=Cc3ccc(N(C)C)cc3)S2)ccc1OC(C)=O | MCF7 | GC-MS, item: Glyceric acid |  | 1 µM | relative to: DMSO | metabolite level | 0.36 fold change |
| N=C(N)NCCC[C@@H](NC(=O)[C@H](Cc1ccccc1)NC(=O)[C@H](Cc1ccccc1)NC(=O)[C@@H](CCCNC(=N)N)NC(=O)CCCC[C@@H]1SC[C@@H]2NC(=O)N[C@@H]21)C(N)=O | MDBK cells | item: CM-H2DCFDA fluorescence |  | 1 µM, 3 days, serum-free | relative to: untreated | reduction of oxidative stress | > 80% and 80% |
| Cn1ncc2cc(-c3cncc(Cl)c3N3CCC4(CCNC4=O)CC3)ccc21 | LS174T | gene expression, microarray, item: G0S2 mRNA |  | concentration not given, 24 h | relative to: untreated cells | log2 fold change | 2.12 |
| CO[C@@H]1[C@@H](OC(N)=O)[C@@H](O)[C@H](Oc2ccc3c(O)c(NC(=O)c4ccc(O)c(CC=C(C)C)c4)c(=O)oc3c2C)OC1(C)C | HCT-116 BRCA2 wild-type |  |  | 300 µM, mean of replicates A, B | relative to: untreated | colony survival | 32.8% |
| CCOc1cncc(-c2ccc(NC(=O)C3(c4ccnc(NS(=O)(=O)C5CC5)n4)CCOCC3)nc2)n1 | lung cancer | cell viability, CellTiter-Glo | DMSO 0.1% | 72 h, line code 526 |  | IC50 | 58 nM |
| Cn1c(=O)n(C2CCC(=O)NC2=O)c2ccc(C3CCN(CC(=O)Nc4cccc(CS(=O)(=O)N5CC[C@H](Nc6cccc(-c7sc(C(=O)O)c(OCC(=O)O)c7Cl)c6)CC5(C)C)c4)CC3)cc21 (some centres unmarked) | B16-F10 | HTRF, item: phospho-STAT1 Tyr701 |  | 0.123 µM, added: IFN-γ | relative to: min-max normalised | pSTAT1 level | 85.7% and 89.8% and 84.3% and 81.1% and 81.4% and 80.6% |
| Cn1ncc(-c2ccc3c(=O)[nH]nc(CN)c3c2)c1-c1c(F)c(Cl)cc(OC2CC2)c1C#N | MOLP-8 | cell viability, inhibitor, CellTiter-Glo |  | 120 h, baseline-subtracted |  | IC50 | 160 nM |
| CN(C)CCNc1ccc(-c2nn(C)c(=O)c3ccccc23)cc1[N+](=O)[O-] | Trypanosoma cruzi | reporter mRNA translation, inhibitor, item: capped polyadenylated Renilla luciferase mRNA | cell-free extract | concentration not given | relative to: positive over negative control | translation activity | 107% and 75.3% and 98.5% and 102% |
| Cc1cc(NC2CCN(C)CC2)ccc1-c1cc2c(N3CCC[C@H](C(=O)NCc4ccc(OC(F)(F)F)cc4)C3)ncnc2[nH]1 | KARPAS-299 | cell growth or viability, MTT |  | 0.2 µg/mL, 72 h |  | inhibition | 71.9% |

| Compound | target or system | assay | system | conditions | scale | measurement | result |
| --- | --- | --- | --- | --- | --- | --- | --- |
| CC(C)c1ccc(N(C)c2ccc3c(c2)OCC[C@H]3CNc2cnccc2C(=O)O)cc1 | FTC-133 | cell growth or viability, ATP luminescence |  | 7 days |  | IC50 | 7.49 nM |
| CCC(=CCc1c(O)cc2c(c1O)C(=O)CC(c1ccc(O)cc1)O2)CC (centres unmarked) | HeLa | flow cytometry |  | 12 µM, 48 h |  | active caspase-3 cells | 3.85 ± 0.13% |
| COc1ccccc1-c1ccncc1C(=O)Nc1nnc(OCc2ccc(Cl)cc2)s1 | U2OS EJ2-GFP | EJ2-GFP reporter, GFP+/dsRed+ ratio |  | 5 µM, added: I-SceI transfection | relative to: DMSO | change in MMEJ frequency | 18.7% and 15.8% and 7.4% |
| C=C1C[C@]2(C(=O)OC)C=C(C(=O)Nc3cccc(C(=O)Nc4ccc(Nc5nccc(-c6cccnc6)n5)c(C)c4)c3)C(=O)[C@H]1C2 | HEK293 AP1 reporter cells | AP-1 reporter gene, inhibitor |  | 3 µM, 6 h, unit not given, added: PMA | relative to: PMA alone | reporter activity | 0.582 |
| C=C1C(=O)OC2C1CCC(C)(O)C13C=CC(C)(C21)C1(C3)C(=O)OC2C3C(C)=CC(=O)C3=C(C)CC(OC(C)=O)C21 (centres unmarked) | AML12 mouse hepatocytes | lipid accumulation, Nile Red staining |  | maximum safe concentration, 24 h, added: palmitic acid/oleic acid |  | maximum inhibition | 16.7 ± 2.13% |
| COc1ccc2c(c1)CCCN2S(=O)(=O)C1CC2OC1C(c1ccc(O)cc1)=C2c1ccc(O)cc1 (centres unmarked) | MCF7 3xERE-luc, steroid-deprived | ERE luciferase reporter, agonist |  |  | relative to: vehicle | Emax | -0.7% |
| CC(C)Cc1ccc(C(C)C(=O)[Se]CC(=O)Nc2cccc(C(F)(F)F)c2)cc1 (centres unmarked) | NCI60 CNS cancer panel | five-dose screen |  |  |  | GI50 | 1870 nM |
| CNS(=O)(=O)Nc1nccc(Cc2c(C)c3ccc(Oc4ncccc4F)cc3oc2=O)c1F | NCI-H661 | cell viability |  | 7 days |  | IC50 | > 1000 nM |
| C=CC(=O)N1[C@H](c2ccc3c(c2)OCO3)c2[nH]c3ccccc3c2C[C@@H]1C(=O)NC | rat DRG neurons |  |  | 0.3704 µM, 48 h, added: vincristine 40 nM |  | neuron degeneration | 45.7% and 41.8% |
| CCN(CC)CC(=O)Nc1cccc(-n2cc(-c3ccc4ccc(-c5cn(-c6cccc(NC(=O)CN(CC)CC)c6)nn5)cc4c3)nn2)c1 | RCC4 | PCR angiogenesis array, item: IL6 |  | 5 x IC50, 6 h, normoxia | relative to: untreated | fold regulation | -2 |
| CN1CCCNC(=O)c2cccc(c2)C(=O)NCCCN(C)CCCNc2cccc3c2C(=O)c2cccc(c2C3=O)NCCC1 | SAS | RNA-Seq, item: DDX42 mRNA |  | 1 µM, 6 h | relative to: untreated cells | log2 fold change | -1.75 |
| COc1ccc2c(c1)OC1=C(C(=O)CCC1)C2c1c[nH]c2ccccc12 (centres unmarked) | 3T3-L1 | cell growth or viability, MTT |  | 72 h |  | IC20 | 76.1 µg/mL (≈ 220 µM) |
| Cc1cc(NC(=O)C23CC4CC(C2)CC(n2cnc([N+](=O)[O-])n2)(C4)C3)no1 | Trypanosoma cruzi | reporter mRNA translation, inhibitor, item: Renilla luciferase mRNA | cell-free extract | concentration not given, test 1 | relative to: positive over negative control | translation activity | 104% and 114% |
| CN(C)c1ccc(-n2cc(COC(=O)[C@@]3(C)C=C(C(=O)OC(C)(C)C)C(=O)CC3)nn2)cc1 | HeLa | quantitative western blot |  | concentration not given, 30 (unit not given), added: EGF |  | pERK/ERK ratio | 0.0532 |
| CCN(C(=O)c1cc(F)ccc1Oc1nncnc1N1CCC2(C1)CN([C@H](CCCN(C)CCOC)C(C)C)C2)C(C)C | BT-20 | cell growth or viability |  | 72 h |  | GI50 | > 10000 nM |
| COc1cccc(OC)c1-c1cc(C(=O)NC2(C(=O)O)C3CC4CC(C3)CC2C4)nn1-c1ccc(C(=O)N(C)CCOCCOCCN(C)C(=O)[C@H](CCCCNC(=O)[C@H](CC(C)C)NC(=O)C2OC2C(=O)O)NC(=O)CN2CCN(CC(=O)[O-])CCN(CC(=O)[O-])CCN(CC(=O)[O-])CC2)cc1C(C)C.[177Lu+3] (mixture of isomers) | HT-29 |  |  | concentration not given, 30 min | relative to: added activity | surface-bound fraction | 0.68 ± 0.05% |
| COc1ccc(NC(=O)c2ccc3[nH]c(-c4ccc(N(C)C)cc4)nc3c2)cn1 | HCEC-hTERT | IncuCyte |  | concentration not given, 2 h |  | dead cell to confluence ratio | 2.13 and 1.72 and 1.97 |
| Cc1cc(Cl)cc(-c2ccnc3cc(CN4C(=O)C5C(C4=O)C5(C)C)sc23)c1C[C@@H]1CNCCO1 (some centres unmarked) | CHP-212 parental (wild-type USP7) | PI flow cytometry |  | 0.3 µM, 24 h |  | cells in G2/M phase | 15.5% and 13.9% and 13.5% |
| Cc1ncsc1-c1ccc(C(C)NC(=O)C2CC(O)CN2C(=O)C(NC(=O)CCCCCCCCCCN2CCCC(Nc3ncc(Cl)c(Nc4ccccc4S(=O)(=O)C(C)C)n3)C2)C(C)(C)C)cc1 (centres unmarked) | 22Rv1 | RNA-seq, item: SLC66A1 mRNA |  | concentration not given | relative to: DMSO | log2 fold change | -1.34 |
